Experimental data from different studies.
Parts stem from different laboratories: compare values within a part only. Substitutions count along the parent as printed.
Sequence of UniProt O15294 (whole entry, looked up): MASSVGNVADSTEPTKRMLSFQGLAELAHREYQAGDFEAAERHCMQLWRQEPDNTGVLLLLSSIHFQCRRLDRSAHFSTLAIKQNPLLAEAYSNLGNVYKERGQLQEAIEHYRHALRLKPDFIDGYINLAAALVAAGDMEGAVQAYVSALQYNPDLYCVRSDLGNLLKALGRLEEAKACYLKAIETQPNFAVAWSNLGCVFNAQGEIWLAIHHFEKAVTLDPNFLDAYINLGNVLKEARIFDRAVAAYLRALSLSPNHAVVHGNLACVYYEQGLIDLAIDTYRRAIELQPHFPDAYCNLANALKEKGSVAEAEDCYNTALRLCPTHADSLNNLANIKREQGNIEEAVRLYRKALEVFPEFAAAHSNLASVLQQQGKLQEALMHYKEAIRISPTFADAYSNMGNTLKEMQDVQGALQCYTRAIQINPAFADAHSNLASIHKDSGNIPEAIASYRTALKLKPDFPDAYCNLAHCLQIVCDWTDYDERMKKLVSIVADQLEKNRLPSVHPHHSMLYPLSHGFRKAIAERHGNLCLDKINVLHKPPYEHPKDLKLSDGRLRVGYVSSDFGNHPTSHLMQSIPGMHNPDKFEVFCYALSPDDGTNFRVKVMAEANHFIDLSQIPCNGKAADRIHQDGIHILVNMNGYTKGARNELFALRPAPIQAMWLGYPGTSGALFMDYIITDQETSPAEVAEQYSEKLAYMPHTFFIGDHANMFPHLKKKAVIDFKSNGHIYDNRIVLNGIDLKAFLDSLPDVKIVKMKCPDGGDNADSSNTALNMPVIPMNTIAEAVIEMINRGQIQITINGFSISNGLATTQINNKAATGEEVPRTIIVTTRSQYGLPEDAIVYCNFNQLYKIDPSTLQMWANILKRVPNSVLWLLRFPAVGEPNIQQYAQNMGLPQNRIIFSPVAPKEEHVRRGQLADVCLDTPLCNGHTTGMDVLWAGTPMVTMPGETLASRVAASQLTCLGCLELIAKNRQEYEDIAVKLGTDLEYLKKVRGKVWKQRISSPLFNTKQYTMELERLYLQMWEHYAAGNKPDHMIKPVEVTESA

Block 1 — technique: aptamer microarray, sandwich; molecule type: DNA with 2'F-ANA; matrix: in vitro; tested at: 200 nM; added: Cy3 exosite-II aptamer, 400 nM; reading: higher = stronger binding; strand: GGTTGGTGTGGTTGG
Target: Prothrombin, mature alpha-thrombin (F2, Homo sapiens, UniProt P00734)
Notes: whole 15-mer aptamer, many near background
Modification	mean fluorescence intensity [a.u.]
2'F-ANA at 2 3 4 5 7 8 9 10 11 12 13 14 15	95.8
2'F-ANA at 1 3 4 5 10 12 14	46.1
2'F-ANA at 5 6 8 10 12 13 14 15	45.4
2'F-ANA at 3 6 8 9 11 14	522
2'F-ANA at 4 5 6 8 10 11 15	47.4
2'F-ANA at 1 2 3 4 5 7 8 9 10 14 15	50.9
2'F-ANA at 1 4 5 6 10 12 14 15	45.7
2'F-ANA at 2 3 4 7 8 9 10 11 12 15	291

Block 2 — technique: RNA Bind-n-Seq; molecule type: RNA; matrix: in vitro; tested at: 365 nM; relative to: no-protein control; reading: higher = stronger binding
Target: RNA binding protein fox-1 homolog 2, RRM domain, GST-SBP tag (RBFOX2, Homo sapiens, UniProt O43251-10, residues 100-194)
Notes: natural RNA segment, single round, ends assumed
Shared flanks, not repeated: GGGAGUUCUACAGUCCGACGAUC … UGGAAUUCUCGGGUGCCAA
Target sequence (chain): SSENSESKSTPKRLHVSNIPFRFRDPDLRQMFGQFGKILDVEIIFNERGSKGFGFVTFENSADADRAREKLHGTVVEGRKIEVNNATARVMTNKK
Strand	RBNS enrichment (R)
AGGUCACCCCACCCUAGAAUCCGCAUGGUUUCCCUGUGAUUGCACUCCACUGCCACCGUGGUGCCUGGCUUCAGCUCCCCUCCCCCAAUCCCUGCUAAGCCUCUACUCUG	1.07
GACUCCCACCCUGGCAUCAGACACCAGGCUUUGUCUUCUGGAGUUGCAGCCAGCGCUGCCCCAUGCCCUUCUGAUCCUCCCCCUCUCCCACCGCCCUCCCUGGAUAGGAU	0.716
UGUGUUUUAUAUGCUCAUUUAAAAUGACUUUUCAGUGUUCUUCAGUUUAAAAUCUGUUGUUUGACUUUAAAAACAGCCUUUCACAACUUGUCCCAGGAGAACUGACCACA	0.246
UUUUGUCCUCUUCCAGACACUGUUGCCUCUACCUAGUUAGACAAAUAGGAUUUGACCUACAUUCUGUUGCCCCUAGGUUUGUGUUAGUGUCAGAAAUACUUAAACAGUGG	0.309
ACUGAGCUCUGUGCUUUCAUUCCUAGAGAUGUUUCUCAUUCCCAUUUAGUGAAAUGCUGUUGCCCCAAAGUGAUGGUUGUGGGAUUUCUUACCGGUCAUAGGCCCCGGUG	0.369
CUGUGCCUUGAUCAUUUCGGUGACUGAAGAGUCUGACCCCAGAGGCCUUGGGGACCCUUUCUUCUCUCUGAUGAUGGCAGUCUGGAAUAAAGCACUGUCACCUUUGACUC	0.333
CUCAGCCCAACCCCCUGCUUCCUGUUGGCUUUUGGGUAGCACUUGCCAUUAACAACAGCAGCCUAGAACUGACGCUUUAGUGGCCCGUCUGCAGAGCCAAAUCUUGCUCU	15.1
AAUUUCAUGGUUCUUUAAAUAUUAUAAACACAGAGUCAACAUAGAAUGAAAUUGUAUUUGUUAAAAUACACACAUUGGAGGACAAGAGCAGAUGACUACUUUUCGAAGUA	0.396

Block 3 — target: BATF, bZIP domain (human); technique: DHFR protein complementation; matrix: yeast; relative to: wild-type JUN-FOS pair; reading: higher = stronger binding
Notes: single substitutions, most at no-binding floor
Parent: JUN, bZIP domain (human); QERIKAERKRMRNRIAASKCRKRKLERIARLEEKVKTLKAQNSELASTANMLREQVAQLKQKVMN; partner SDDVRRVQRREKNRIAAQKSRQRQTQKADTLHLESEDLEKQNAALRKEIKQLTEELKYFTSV
Substitution	binding fitness [natural log]
L31P	-0.446
T48R	0.0756
K36F	-0.194
E44N	-0.154
L38P	-1.12
A46G	-0.19
K39N	-0.283
A46W	-0.0873

Mixed results
Sequence	target	test	test system	setting	scale	measurement	result
DNKMHARNHQQHPH	UDP-N-acetylglucosamine--peptide N-acetylglucosaminyltransferase 110 kDa subunit (OGT, Homo sapiens, UniProt O15294)	binding, phage display NGS	peptide	concentration not given	relative to: input library	enrichment fold change	8.48

For quick reference, copied from above (block 2):
Strand	RBNS enrichment (R)
UGUGUUUUAUAUGCUCAUUUAAAAUGACUUUUCAGUGUUCUUCAGUUUAAAAUCUGUUGUUUGACUUUAAAAACAGCCUUUCACAACUUGUCCCAGGAGAACUGACCACA	0.246
ACUGAGCUCUGUGCUUUCAUUCCUAGAGAUGUUUCUCAUUCCCAUUUAGUGAAAUGCUGUUGCCCCAAAGUGAUGGUUGUGGGAUUUCUUACCGGUCAUAGGCCCCGGUG	0.369
CUGUGCCUUGAUCAUUUCGGUGACUGAAGAGUCUGACCCCAGAGGCCUUGGGGACCCUUUCUUCUCUCUGAUGAUGGCAGUCUGGAAUAAAGCACUGUCACCUUUGACUC	0.333
